Measured values collected from several papers.
Protocols differ between the studies behind these lines. Values joined by “and” are separate records of one study, mostly repeats; a detail may differ. Numbers after ± are the reported error.
Tumor necrosis factor receptor superfamily member 9/Nectin-4: Tumor necrosis factor receptor superfamily member 9/Nectin-4 (Homo sapiens, UniProt Q07011+Q96NY8)
UniProt Q07011, sequence (whole entry, looked up): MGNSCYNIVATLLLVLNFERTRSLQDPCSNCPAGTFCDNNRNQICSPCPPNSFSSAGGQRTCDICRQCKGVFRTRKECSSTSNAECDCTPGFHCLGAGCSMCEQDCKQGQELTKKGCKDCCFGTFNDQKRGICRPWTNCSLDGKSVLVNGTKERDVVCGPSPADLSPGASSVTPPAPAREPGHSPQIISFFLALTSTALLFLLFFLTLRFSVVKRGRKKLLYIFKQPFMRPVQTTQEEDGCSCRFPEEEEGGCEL
UniProt Q96NY8, sequence (whole entry, looked up): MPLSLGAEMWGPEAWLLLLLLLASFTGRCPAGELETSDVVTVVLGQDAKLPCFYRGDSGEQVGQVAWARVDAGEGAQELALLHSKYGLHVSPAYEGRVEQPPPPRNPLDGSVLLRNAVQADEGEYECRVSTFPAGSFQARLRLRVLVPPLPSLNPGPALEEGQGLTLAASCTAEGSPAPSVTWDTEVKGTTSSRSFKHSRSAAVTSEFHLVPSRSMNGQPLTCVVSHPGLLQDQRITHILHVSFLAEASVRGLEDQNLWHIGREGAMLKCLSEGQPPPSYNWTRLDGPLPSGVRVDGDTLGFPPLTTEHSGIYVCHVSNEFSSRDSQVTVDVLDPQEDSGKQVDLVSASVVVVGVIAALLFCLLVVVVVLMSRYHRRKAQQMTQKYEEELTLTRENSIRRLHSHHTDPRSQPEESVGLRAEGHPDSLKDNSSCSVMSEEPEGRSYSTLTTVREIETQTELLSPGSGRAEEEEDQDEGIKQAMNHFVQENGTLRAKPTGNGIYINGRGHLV
NR4A1: Nuclear receptor subfamily 4 group A member 1 (NR4A1, Homo sapiens, UniProt P22736)
UniProt P22736, sequence (whole entry, looked up): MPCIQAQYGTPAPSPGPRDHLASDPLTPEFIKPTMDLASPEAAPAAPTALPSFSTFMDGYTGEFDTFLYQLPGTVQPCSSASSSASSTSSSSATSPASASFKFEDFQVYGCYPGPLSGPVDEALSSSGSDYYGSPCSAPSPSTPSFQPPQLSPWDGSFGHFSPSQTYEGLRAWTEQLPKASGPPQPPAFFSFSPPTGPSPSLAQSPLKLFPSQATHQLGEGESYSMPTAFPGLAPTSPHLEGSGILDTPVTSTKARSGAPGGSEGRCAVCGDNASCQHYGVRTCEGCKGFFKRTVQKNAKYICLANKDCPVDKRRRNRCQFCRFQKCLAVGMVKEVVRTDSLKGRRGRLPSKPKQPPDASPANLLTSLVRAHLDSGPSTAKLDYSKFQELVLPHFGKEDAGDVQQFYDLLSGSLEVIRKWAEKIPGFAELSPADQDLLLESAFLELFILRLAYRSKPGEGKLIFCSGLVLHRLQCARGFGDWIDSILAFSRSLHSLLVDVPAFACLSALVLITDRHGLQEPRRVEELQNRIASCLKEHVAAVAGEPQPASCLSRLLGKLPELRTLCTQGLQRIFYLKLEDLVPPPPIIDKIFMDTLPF
GUK1: GUK1 (Homo sapiens, UniProt Q16774)
UniProt Q16774, sequence (whole entry, looked up): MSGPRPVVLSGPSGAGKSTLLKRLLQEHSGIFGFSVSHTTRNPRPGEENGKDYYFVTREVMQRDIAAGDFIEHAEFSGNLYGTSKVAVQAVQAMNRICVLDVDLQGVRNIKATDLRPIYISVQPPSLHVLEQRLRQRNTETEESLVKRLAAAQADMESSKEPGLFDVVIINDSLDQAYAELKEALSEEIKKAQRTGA
T1: ssDNA, aptamer; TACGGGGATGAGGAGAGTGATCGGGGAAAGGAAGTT
UniProt P51575, sequence (whole entry, unmodified, looked up): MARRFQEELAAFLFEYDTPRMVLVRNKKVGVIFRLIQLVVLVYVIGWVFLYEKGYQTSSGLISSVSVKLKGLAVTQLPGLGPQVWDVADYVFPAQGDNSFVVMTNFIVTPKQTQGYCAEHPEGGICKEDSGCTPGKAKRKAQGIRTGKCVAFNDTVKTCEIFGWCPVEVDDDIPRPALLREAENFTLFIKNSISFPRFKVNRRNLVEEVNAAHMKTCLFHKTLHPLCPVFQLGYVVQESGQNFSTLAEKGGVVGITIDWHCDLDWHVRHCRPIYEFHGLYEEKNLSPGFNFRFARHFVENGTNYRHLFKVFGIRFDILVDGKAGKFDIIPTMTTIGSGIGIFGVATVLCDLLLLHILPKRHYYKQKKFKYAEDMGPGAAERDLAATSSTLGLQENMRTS
UniProt Q64663, sequence (whole entry, unmodified, looked up): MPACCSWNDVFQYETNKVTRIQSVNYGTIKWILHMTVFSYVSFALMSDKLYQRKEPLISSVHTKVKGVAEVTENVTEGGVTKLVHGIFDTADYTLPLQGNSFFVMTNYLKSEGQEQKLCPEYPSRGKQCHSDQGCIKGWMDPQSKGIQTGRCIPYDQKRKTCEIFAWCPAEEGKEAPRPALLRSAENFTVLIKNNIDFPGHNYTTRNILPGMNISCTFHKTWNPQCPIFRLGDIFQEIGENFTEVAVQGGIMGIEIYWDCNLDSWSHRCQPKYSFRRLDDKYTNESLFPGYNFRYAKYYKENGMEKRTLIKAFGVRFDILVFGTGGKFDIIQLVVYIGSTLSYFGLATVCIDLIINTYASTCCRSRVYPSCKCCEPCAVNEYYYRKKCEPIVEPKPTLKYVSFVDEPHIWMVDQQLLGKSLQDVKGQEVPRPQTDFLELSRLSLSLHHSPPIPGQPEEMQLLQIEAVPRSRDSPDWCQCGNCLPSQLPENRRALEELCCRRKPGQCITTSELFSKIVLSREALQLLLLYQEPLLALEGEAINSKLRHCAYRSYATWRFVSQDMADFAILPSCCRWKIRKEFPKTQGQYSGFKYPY
UniProt O75762, sequence (whole entry, looked up): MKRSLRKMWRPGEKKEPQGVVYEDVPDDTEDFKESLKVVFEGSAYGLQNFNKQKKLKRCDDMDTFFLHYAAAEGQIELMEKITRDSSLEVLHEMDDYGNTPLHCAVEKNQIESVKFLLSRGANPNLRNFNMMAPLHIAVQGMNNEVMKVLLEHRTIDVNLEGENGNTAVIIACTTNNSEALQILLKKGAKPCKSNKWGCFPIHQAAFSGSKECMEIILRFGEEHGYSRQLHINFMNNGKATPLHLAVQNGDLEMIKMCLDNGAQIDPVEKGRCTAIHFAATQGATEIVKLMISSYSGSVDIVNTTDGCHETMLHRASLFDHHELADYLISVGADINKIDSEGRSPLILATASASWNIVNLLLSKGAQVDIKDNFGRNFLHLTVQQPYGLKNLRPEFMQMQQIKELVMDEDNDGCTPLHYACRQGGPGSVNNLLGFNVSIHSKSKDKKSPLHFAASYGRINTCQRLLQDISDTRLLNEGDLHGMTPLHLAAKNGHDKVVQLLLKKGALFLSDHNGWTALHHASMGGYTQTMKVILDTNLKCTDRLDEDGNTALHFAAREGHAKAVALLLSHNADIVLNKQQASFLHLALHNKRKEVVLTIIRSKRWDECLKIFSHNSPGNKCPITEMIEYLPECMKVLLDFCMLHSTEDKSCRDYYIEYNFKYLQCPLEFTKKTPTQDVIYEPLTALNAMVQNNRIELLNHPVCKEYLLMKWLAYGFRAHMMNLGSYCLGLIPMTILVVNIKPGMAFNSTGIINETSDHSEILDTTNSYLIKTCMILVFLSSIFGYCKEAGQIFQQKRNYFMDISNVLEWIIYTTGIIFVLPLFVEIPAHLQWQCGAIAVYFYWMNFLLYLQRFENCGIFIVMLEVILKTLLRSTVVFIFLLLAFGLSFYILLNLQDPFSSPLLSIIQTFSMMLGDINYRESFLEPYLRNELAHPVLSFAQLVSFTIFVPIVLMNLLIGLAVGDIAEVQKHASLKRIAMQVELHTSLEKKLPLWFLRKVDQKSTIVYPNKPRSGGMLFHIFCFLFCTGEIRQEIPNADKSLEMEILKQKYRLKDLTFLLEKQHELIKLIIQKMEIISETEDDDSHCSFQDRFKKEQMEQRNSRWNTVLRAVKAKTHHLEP
UniProt O76090, sequence (whole entry, unmodified, looked up): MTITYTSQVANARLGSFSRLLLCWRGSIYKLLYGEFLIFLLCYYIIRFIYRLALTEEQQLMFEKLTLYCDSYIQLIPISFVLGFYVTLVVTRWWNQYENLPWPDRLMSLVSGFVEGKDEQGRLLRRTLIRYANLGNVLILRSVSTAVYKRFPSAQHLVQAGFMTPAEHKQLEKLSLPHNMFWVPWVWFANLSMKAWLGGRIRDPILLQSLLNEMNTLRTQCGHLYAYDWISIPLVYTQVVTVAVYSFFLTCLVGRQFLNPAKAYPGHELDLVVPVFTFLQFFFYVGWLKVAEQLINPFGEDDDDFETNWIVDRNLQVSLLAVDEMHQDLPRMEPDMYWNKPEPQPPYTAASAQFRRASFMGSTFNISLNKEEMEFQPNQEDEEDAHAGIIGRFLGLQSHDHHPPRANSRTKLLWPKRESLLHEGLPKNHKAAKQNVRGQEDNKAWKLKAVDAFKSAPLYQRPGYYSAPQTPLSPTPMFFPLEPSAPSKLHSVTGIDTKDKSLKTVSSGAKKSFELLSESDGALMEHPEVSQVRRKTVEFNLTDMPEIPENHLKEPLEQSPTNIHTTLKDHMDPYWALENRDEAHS
UniProt Q9NYV8, sequence (whole entry, unmodified, looked up): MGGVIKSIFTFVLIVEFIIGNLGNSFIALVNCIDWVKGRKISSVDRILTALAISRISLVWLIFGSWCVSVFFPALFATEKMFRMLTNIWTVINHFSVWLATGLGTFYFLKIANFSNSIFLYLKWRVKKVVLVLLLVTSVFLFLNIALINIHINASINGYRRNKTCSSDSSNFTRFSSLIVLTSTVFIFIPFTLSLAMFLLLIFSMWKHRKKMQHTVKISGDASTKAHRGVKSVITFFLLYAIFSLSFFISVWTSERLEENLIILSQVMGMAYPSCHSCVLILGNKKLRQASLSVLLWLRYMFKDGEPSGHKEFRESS
UniProt Q92207, sequence (whole entry, looked up): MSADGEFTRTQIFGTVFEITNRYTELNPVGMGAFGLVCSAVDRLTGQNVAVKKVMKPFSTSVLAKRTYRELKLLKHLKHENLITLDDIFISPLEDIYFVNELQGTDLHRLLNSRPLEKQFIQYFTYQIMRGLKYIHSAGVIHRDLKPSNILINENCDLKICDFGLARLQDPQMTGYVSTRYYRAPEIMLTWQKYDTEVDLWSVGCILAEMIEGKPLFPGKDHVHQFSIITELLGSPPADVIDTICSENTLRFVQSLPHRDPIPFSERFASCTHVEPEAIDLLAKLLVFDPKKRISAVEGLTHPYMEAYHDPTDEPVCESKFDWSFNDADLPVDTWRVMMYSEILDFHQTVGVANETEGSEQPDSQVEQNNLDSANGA

| Compound | target | assay | system | conditions | scale | quantity | value |
| --- | --- | --- | --- | --- | --- | --- | --- |
| N[C@H](CC(=O)O)C(=O)O | Methyl-accepting chemotaxis protein, ligand-binding domain (Pectobacterium atrosepticum, UniProt Q6D6I9) | binding, thermal shift | – | ligand-binding domain | – | ΔTm | binds |
| CC1(C)CC2(C)OC(=O)NC2(C)c2ccccc21 (stereo not shown) | FBXW7 (Homo sapiens, UniProt Q969H0) | binding, affinity selection mass spectrometry | – | – | relative to: other proteins in batch | fold enrichment | 0.984 |
| Nc1ncnc2c1ncn2[C@@H]1O[C@H](COP(=O)(O)OP(=O)(O)OP(=O)(O)O)[C@@H](O)[C@H]1O | P2X purinoceptor 2 (P2RX2, Homo sapiens, UniProt Q9UBL9, D148K/E146K/L150K) | ion current, agonist, two-electrode voltage clamp | Xenopus oocytes | – | – | Hill slope | 1.73 |
| CCCC[C@@H]1NC(=O)[C@H](Cc2ccc(O)cc2)NC(=O)[C@@H]2CCCN2C(=O)[C@H](CC(=O)O)NC(=O)[C@H](C)NC(=O)[C@H](Cc2ccccc2)NC(=O)[C@@H]2CSCCC(=O)N3CN(CN(C3)C(=O)CCSC[C@@H](C(=O)N[C@@H](CNC(=O)CCc3cn(CCOCCOCCOCCN(CCOCCOCCOCCC(=O)N[C@H]4CSCCC(=O)N5CN6CN(C5)C(=O)CCSC[C@H](NC(=O)[C@@H](CC(=O)O)NC(=O)[C@H](Cc5cccc7ccccc57)NC(=O)[C@@H]5CCCN5C4=O)C(=O)N[C@@H](CCSC)C(=O)N[C@@H](CCCCNC(=N)N)C(=O)N[C@@H](CC(=O)O)C(=O)N[C@@H](Cc4c[nH]c5ccccc45)C(=O)N[C@@H](CO)C(=O)N[C@@H]([C@@H](C)O)C(=O)N4CCC[C@H]4C(=O)N4C[C@H](O)C[C@H]4C(=O)N[C@@H](Cc4c[nH]c5ccccc45)C(=O)N[C@H](C(N)=O)CSCCC6=O)CCOCCOCCOCCn4cc(CCC(=O)NC[C@H](NC(=O)[C@@H]5CSCCC(=O)N6CN7CN(C6)C(=O)CCSC[C@H](NC(=O)[C@H](Cc6ccc(O)cc6)NC(=O)[C@@H]6CCCN6C(=O)[C@@H](C)NC(=O)[C@H](CCC(=O)O)NC(=O)[C@@H]6CCCN6C(=O)[C@H](CC(C)(C)C)NC(=O)[C@@H](NC(C)=O)CSCCC7=O)C(=O)N[C@@H](Cc6ccccc6)C(=O)N[C@@H](C)C(=O)N[C@@H](CC(=O)O)C(=O)N6CCC[C@H]6C(=O)N[C@@H](Cc6ccc(O)cc6)C(=O)N[C@@H](CCCC)C(=O)N5)C(N)=O)nn4)nn3)C(N)=O)NC1=O)C(=O)CCSC[C@H](NC(C)=O)C(=O)N[C@@H](CC(C)(C)C)C(=O)N1CCC[C@H]1C(=O)N[C@@H](CCC(=O)O)C(=O)N[C@H](C)C(=O)N1CCC[C@H]1C(=O)N[C@@H](Cc1ccc(O)cc1)C(=O)N2 | Tumor necrosis factor receptor superfamily member 9/Nectin-4 | reporter gene, agonist | HT-1376 coculture with reporter cells | – | relative to: background | Emax | 59 fold |
| Nc1ccc(C(=O)O)cc1 | BEST1, with wild-type BEST1 (Homo sapiens, UniProt O76090, A10T) | whole-cell patch clamp | HEK293 co-expressing WT and A10T mutant | concentration not given, membrane potential 0 mV | – | current density | -0.07 pA/pF and 0.04 pA/pF and 0.01 pA/pF and 0.03 pA/pF and 0.02 pA/pF and -0.03 pA/pF |
| Cc1cc2c(cc1N1C(=O)c3cccc4c(Cl)ccc(c34)C1=O)n(C)c(=O)n2C | Protein polybromo-1, bromodomain 6 (PBRM1, Homo sapiens, UniProt Q86U86) | binding, thermal shift | – | 10 µM | higher = stronger binding | thermal shift | -0.7 °C |
| CCCCCCCC(=O)c1cc(OC)c(OC)c(OC)c1CC(=O)OCC | NR4A1 | reporter gene, NBRE reporter full-length | – | 10 µM | relative to: vehicle | activation | 0.73 fold |
| O=C(/C=C/c1cccc(F)c1)Nc1cc(-c2ccnc(N3CCC(O)CC3)c2)ccn1 | NR4A1 | SPR | – | 10.0 µM | – | binding response | 43.5 RU |
| O=S(=O)(O)O | GUK1 | enzyme activity, NADH-coupled | – | 10 mM, with: ATP 1000 µM | – | reaction velocity | 0.0919 µM/s and 0.0727 µM/s and 0.0722 µM/s |
| O=C(CN1CCO[C@H](COc2cccc(Cl)c2)C1)N1CCc2ccccc21 | D(4) dopamine receptor (DRD4, Homo sapiens, UniProt P21917) | radioligand binding | – | concentration not given, with: [3H]N-methylspiperone | – | inhibition | 72.9% |
| C#CCCOC(=O)[C@]1(C)C=C(C(=O)OC(C)(C)C)C(=O)CC1 | Mitogen-activated protein kinase 8 (MAPK8, Homo sapiens, UniProt P45983) | D-peptide binding, inhibitor, FP peptide displacement | – | 3.125 µM | lower is stronger displacement | fraction bound | 0.764 |
| O=C(O)c1cncc(-c2ccc3[nH]ccc3c2)c1 | Tumor necrosis factor receptor superfamily member 1A, extracellular domain (Homo sapiens, UniProt P19438) | binding, SPR | – | – | – | ligand efficiency | 0.29 |
| Nc1ncnc2c1ncn2[C@@H]1O[C@H](COP(=O)(O)O)[C@@H](O)[C@H]1O | T1, ssDNA, aptamer | molecular beacon fluorescence quenching | – | – | – | Kd | 96 µM |
| Nc1ncnc2c1ncn2[C@@H]1O[C@H](COP(=O)(O)OP(=O)(O)OP(=O)(O)O)[C@@H](O)[C@H]1O | P2X purinoceptor 7 (P2rx7, Rattus norvegicus, UniProt Q64663, R125A) | ion current, agonist, two-electrode voltage clamp | Xenopus laevis oocytes | 55.56 µM | relative to: highest concentration response | normalized current | 0.59 and 0.651 and 0.667 |
| O=c1nc(SCc2cc(F)cc(C(F)(F)F)c2)nc(SCc2ccc3nc(Cl)ccc3c2)[nH]1 | DNA topoisomerase 2-alpha (TOP2A, Homo sapiens, UniProt P11388) | ATPase activity | – | 15.6 µM, with: ATP 1 mM | – | ATP hydrolysis rate | 1.9 µM/min and 2.31 µM/min |
| O=C(O)c1ccccc1Nc1cccc(C(F)(F)F)c1 | Taste receptor type 2 member 14 (TAS2R14, Homo sapiens, UniProt Q9NYV8) | G-protein dissociation, TRUPATH gustducin BRET | – | 1 µM, wild-type receptor, unit not given | relative to: vehicle | ΔBRET | 0.00561 and 0.00673 and -0.0303 and -0.00466 and 0.0107 and 0.0661 and 0.00771 |
| c1ccc(-c2n[nH]cc2-c2ccnc3ccccc23)nc1 | Mitogen-activated protein kinase HOG1 (HOG1, Candida albicans, UniProt Q92207) | MIB/MS competition binding | Candida albicans cell lysate | 10 µM | relative to: DMSO, lower = stronger binding | log2 fold change | 0.823 |
| Nc1ncnc2c1ncn2[C@@H]1O[C@H](COP(=O)(O)OP(=O)(O)O)[C@@H](O)[C@H]1O | GUK1 | ITC | – | molar ratio 0.6998 | – | ΔH | -2.03 kcal/mol |
| [Ca] | Transient receptor potential cation channel subfamily A member 1 (TRPA1, Homo sapiens, UniProt O75762) | ion current, two-electrode voltage clamp | Xenopus oocytes | 100 µM, +80 mV, with: extracellular Ca2+ | relative to: current before Ca2+ addition | potentiation | 1.65 fold change and 1.43 fold change and 1.3 fold change and 1.12 fold change and 1.35 fold change |
| O=S(=O)(O)C1CCNCC1 | Sodium- and chloride-dependent taurine transporter (SLC6A6, Homo sapiens, UniProt P31641, G62A) | binding, microscale thermophoresis | – | 500 µM, room temperature, with: 50 nM labelled protein | higher = more binding | normalised MST signal | -0.00405 |
| C=CC(=O)N1CCC(COCC(=O)N2CCN(c3nc(-c4cnc(N)nc4C(F)F)nc(N4CCOC[C@@H]4C)n3)CC2)CC1 | cAMP-dependent protein kinase catalytic subunit PRKX (PRKX, Homo sapiens, UniProt P51817) | KINOMEscan | – | 1 µM | – | remaining binding | 99% |
| c1coc(-c2n[nH]cc2-c2ccnc3ccccc23)c1 | Serine/threonine-protein kinase SCH9 (SCH9, Candida albicans, UniProt Q5AHG6) | kinase binding, MIB/MS competition | Candida albicans lysate | 1 µM | relative to: DMSO, negative = stronger binding | log2 fold change | -0.26 |
| COCCOCc1ccc(-c2cc3onc(-c4ccccc4)c3c(=O)n2C)cc1 | NR4A1 | reporter gene, NBRE reporter full-length | – | 1 µM | relative to: vehicle | activation | 1.57 ± 0.18 fold |
| Nc1nc2c(ncn2[C@@H]2O[C@@H]3COP(=O)(O)O[C@H]4[C@@H](O)[C@H](n5cnc6c(=O)[nH]c(N)nc65)O[C@@H]4COP(=O)(O)O[C@H]3[C@H]2O)c(=O)[nH]1 | Cell cycle histidine kinase CckA, CA domain (Caulobacter vibrioides, UniProt Q9X688) | binding, ITC | – | with: ADP 5 mM | – | association constant | 46500 ± 5790 M⁻¹ |
| Nc1nc2c(ncn2[C@@H]2O[C@H](COP(=O)(O)OP(=O)(O)OP(=O)(O)O)[C@@H](O)[C@H]2O)c(=O)[nH]1 | DNA-directed RNA polymerase subunit beta' / DNA-directed RNA polymerase subunit beta (rpoC/rpoB, Escherichia coli, UniProt P0A8T7+P0A8V2) | RNA extension, denaturing gel | Escherichia coli, elongation complex, 6-MI template | 5 µM, 10 min, 25 °C | – | incorporation efficiency | 88% |
| O=c1cc(-c2ccc([N+](=O)[O-])cc2)[nH]c2c(-c3ccc(Cl)cc3)c(Cc3ccccc3)nn12 | Sodium channel protein type 8 subunit alpha, C-terminal domain (SCN8A, Homo sapiens, UniProt Q9UQD0) | binder, SPR | – | – | – | koff | 0.00864 ± 3.7e-05 s⁻¹ |
| CCCC[C@@H]1NC(=O)[C@H](Cc2ccc(O)cc2)NC(=O)[C@@H]2CCCN2C(=O)[C@H](CC(=O)O)NC(=O)[C@H](C)NC(=O)[C@H](Cc2ccccc2)NC(=O)[C@@H]2CSCCC(=O)N3CN(CN(C3)C(=O)CCSC[C@@H](C(=O)N[C@@H](C)C(N)=O)NC1=O)C(=O)CCSC[C@H](NC(C)=O)C(=O)N[C@@H](CC(C)(C)C)C(=O)N1CCC[C@H]1C(=O)N[C@@H](CCC(=O)O)C(=O)N[C@H](CCCCNC(=O)CCc1cn(CC(=O)N[C@H]3CSCCC(=O)N4CN5CN(C4)C(=O)CCSC[C@H](NC(=O)[C@@H](CC(=O)O)NC(=O)[C@H](Cc4cccc6ccccc46)NC(=O)[C@@H]4CCCN4C3=O)C(=O)N[C@@H](CCSC)C(=O)N[C@@H](CCCCNC(=N)N)C(=O)N[C@@H](CC(=O)O)C(=O)N[C@@H](Cc3c[nH]c4ccccc34)C(=O)N[C@@H](CO)C(=O)N[C@@H]([C@@H](C)O)C(=O)N3CCC[C@H]3C(=O)N3C[C@H](O)C[C@H]3C(=O)N[C@@H](Cc3c[nH]c4ccccc34)C(=O)N[C@H](C(N)=O)CSCCC5=O)nn1)C(=O)N1CCC[C@H]1C(=O)N[C@@H](Cc1ccc(O)cc1)C(=O)N2 | Tumor necrosis factor receptor superfamily member 9/Nectin-4 | reporter gene, agonist | HT-1376 coculture with reporter cells | – | relative to: background | Emax | 44 fold |
| Nc1ncnc2c1ncn2[C@@H]1O[C@H](COP(=O)(O)CP(=O)(O)OP(=O)(O)O)[C@@H](O)[C@H]1O | P2X purinoceptor 1 (P2RX1, Homo sapiens, UniProt P51575, D170A) | saturation binding | HEK293 | 103 nM | – | specific binding | 348 CCPM and 408 CCPM |

Some of these lines once more:
| Compound | target | assay | system | conditions | scale | quantity | value |
| --- | --- | --- | --- | --- | --- | --- | --- |
| Nc1ncnc2c1ncn2[C@@H]1O[C@H](COP(=O)(O)CP(=O)(O)OP(=O)(O)O)[C@@H](O)[C@H]1O | P2X purinoceptor 1 (P2RX1, Homo sapiens, UniProt P51575, D170A) | saturation binding | HEK293 | 103 nM | – | specific binding | 348 CCPM and 408 CCPM |
| O=C(/C=C/c1cccc(F)c1)Nc1cc(-c2ccnc(N3CCC(O)CC3)c2)ccn1 | NR4A1 | SPR | – | 10.0 µM | – | binding response | 43.5 RU |
